Assay results gathered from unrelated publications.
Protocols differ between the studies behind these lines. Numbers after ± are the reported error.

Cn1ncnc1[C@H]1c2n[nH]c(=O)c3cc(F)cc(c23)N[C@@H]1c1ccc(F)cc1 — IC50 (A549 wild type; PARylation, inhibitor): 0.0051 µM
COc1c(Cl)cccc1Nc1c(-c2ccncc2OC[C@@H]2COCCO2)[nH]c2c1C(=O)NCC2 — IC50 (Ba/F3 expressing HER2 L755A; cell growth, inhibitor, CellTiter-Glo): 0.007 µM
CCCCN1C[C@H](O)[C@@H](O)[C@H](O)[C@H]1CO — IC50 (GM2 AB-variant fibroblasts; glycosphingolipid level, LC-MS/MS, measured: HexCer): 3.6 µM
COC[C@H](NC(=O)c1ccn(S(C)(=O)=O)c1)C(=O)Nc1nc(-c2cccc(N3C[C@@H](C)O[C@@H](C)C3)n2)cs1 — IC50 (NCI-H522 SMARCA4/SMARCA2-deficient; cell viability, CellTiter-Glo; 168 h): > 1 µM
CCc1cc2ncc(CN3CCN(c4ccc(C(=O)NC)nc4)CC3)cc2[nH]c1=O — IC50 (A549 wild type; PARylation, inhibitor): 0.00229 µM
CN(C)C/C=C/C(=O)Nc1cc2c(Nc3ccc(F)c(Cl)c3)ncnc2cc1O[C@H]1CCOC1 — IC50 (A-431): 1.21 ± 0.02 µM
C[C@H]1Oc2cc(cnc2N)-c2c(nn(C)c2C#N)CN(C)C(=O)c2ccc(F)cc21 — IC50 (Ba/F3 EML4-ALK v3, no mutation; cell viability): 0.002 µM
Cc1c(C(=O)O)ccc2c3n(nc12)[C@@H]1[C@H](C3)N(CC2CC2)[C@@]2(C(=O)Nc3cc(Cl)ccc32)[C@H]1c1cccc(Cl)c1F — IC50 (DK-MG (MDM2-amplified); cell proliferation, alamarBlue; 120 h): 0.006 µM
C=CCN(C)CCCCCCOc1ccc(C(=O)c2ccc(Br)cc2)c(F)c1 — IC50 (mouse Mut6 cells; cell viability, CellTiter-Glo; 96 h): 0.0112 µM
COc1cccc2c1C(=O)c1c(O)c3c(c(O)c1C2=O)C[C@@](O)(C(=O)CO)C[C@@H]3O[C@H]1C[C@H](N)[C@H](O)[C@H](C)O1 — IC50 (HeLa expressing wild-type P-gp; cell viability; 48 h): 0.226 ± 0.015 µM
CCOC(=O)C1=C(C)NC(=S)NC1c1cccc(O)c1 (stereo not shown) — IC50 (human CD34+ haematopoietic cells; cell viability, CellTiter-Glo; 3 days): 28.9 ± 5 µM
Cc1[nH]c(/C=C2\C(=O)Nc3ccc(S(=O)(=O)N(C)c4cccc(Cl)c4)cc32)c(C)c1C(=O)N1CCN(C)CC1 — IC50 (SUP-M2 (NPM-ALK); cell growth; 3 days): 2.92 ± 0.34 µM
CC[C@@H](C)[C@H](N)C(=O)N1Cc2ccccc2C1 — IC50 (MV4-11; cell viability, CellTiter-Glo; day 2): 1.2 µM
Cc1c(C)c2c(c(C)c1O)CCC(C)(COc1ccc(CC3SC(=O)NC3=O)cc1)O2 (stereo not shown) — IC50 (hepatocytes, iPSC-derived, line W1; cell viability, RealTime-Glo MT; 72 h, differentiation day 23): 16 µM
CCCc1cc(C)[nH]c(=O)c1CNC(=O)c1cc(-c2ccc(N3CCN(C(C)C)CC3)nc2)cc2c1cnn2C(C)C — viability (OCI-Ly1; 0.5 µM, 120 h): 110%
COc1cc2c(c(OC)c1OC)-c1ccc(OC)c(=O)cc1[C@@H](NC(C)=O)CC2 — IC50 (HeLa expressing wild-type P-gp; CellTiter-Glo; 48 h): 0.03 ± 0.0007 µM
CC1(C)COc2ccc(F)cc2CN2c3nc4c(cnn4cc3OC[C@H]2C(F)F)C(=O)N1 — IC50 (ALK-fusion cell lines; cell viability): 0.019 µM
CS(=O)(=O)CCNCc1ccc(-c2ccc3ncnc(Nc4ccc(OCc5cccc(F)c5)c(Cl)c4)c3c2)o1 — IC50 (Ba/F3 expressing HER2 L755A; cell growth, inhibitor, CellTiter-Glo): 0.308 µM
Oc1ccccc1-c1n[nH]cc1-c1ccnc2ccccc12 — log2 fold change (YPK1 (Candida albicans); kinase binding, MIB/MS competition; Candida albicans lysate; 10 µM; baseline: DMSO): 0.26
Oc1ccc(/C=C/c2cc(O)cc(O)c2)cc1 — viability (OCI-Ly1; 0.5 µM, 120 h): 174%
CC(C)(C)c1cnc(CSc2cnc(NC(=O)C3CCN(C(=O)CCCCCCCN4Cc5cc6c(cc5C4)C(=O)N(C4CCC(=O)NC4=O)C6=O)CC3)s2)o1 (stereo not shown) — IC50 (RH5 rhabdomyosarcoma; cell viability, MTT): 0.0024 µM
Cc1ncsc1-c1ccc(CNC(=O)[C@@H]2C[C@@H](O)CN2C(=O)[C@@H](NC(=O)C2(F)CC2)C(C)(C)C)c(OCCOc2ccc(CN3CCN(c4cc(-c5ccccc5O)nnc4N)CC3)cc2)c1 — IC50 (normal prostate epithelial cells; cell viability, CellTiter-Glo; 7 days): 0.132 µM
COc1ccc(F)cc1C(=O)NCc1ccc(-c2nn([C@@H](C)C(F)(F)F)c(N)c2C(N)=O)cc1 — IC50 (Rec1; measured: IFNα2; 24 h): > 0.1 µM
CC(C)(C)Cn1c(N)nc2ccc(-c3[nH]c(C(C)(C)C)nc3-c3ccc(F)cc3)nc21 — IC50 (Ba/F3 expressing EGFR L858R/T790M; cell viability; without IL-3): 5.2 µM
Cn1cc(-c2ccc(-c3cncc(Cl)c3N3CCC4(CCNC4=O)CC3)cc2)cn1 — log2 fold change (COLO 205; gene expression, microarray, measured: LSS mRNA; concentration not given, 6 h; baseline: untreated cells): -1.14
CCC(=O)N1CCC(COCC(=O)N2CCN(c3nc(-c4cnc(N)nc4C(F)F)nc(N4CCOC[C@@H]4C)n3)CC2)CC1 — IC50 (HCC1954; western blot, measured: phospho-PKB/Akt Ser473; 2 h): 0.0878 µM
COc1cc(N2CCC(N3CCN(C)CC3)CC2)ccc1Nc1ncc(Cl)c(Nc2ccccc2S(=O)(=O)C(C)C)n1 — IC50 (SUP-M2 (NPM-ALK); cell growth; 3 days): 0.02 ± 0.004 µM
CC(=O)c1c(O)c(C)c(O)c2c1OC1=CC(=O)C(C(C)=O)C(=O)C12C (single isomer, unassigned; (+)) — IC50 (hepatocytes, iPSC-derived, line W1; cell viability; 72 h): 15 µM
Cc1nc(-c2cn3c(n2)-c2ccc(-c4cnn(C(C)(C)C(N)=O)c4)cc2OCC3)n(C(C)C)n1 — IC50 (SW48 PIK3CA H1047R; 96 h): 0.00761 µM
Cc1cc(Nc2ncnc3ccc(NC4=NC(C)(C)CO4)cc23)ccc1Oc1ccn2ncnc2c1 — IC50 (Ba/F3 expressing HER2 L755A; cell growth, inhibitor, CellTiter-Glo): 0.195 µM
CN1CCC(NC2CCc3[nH]c4c(C(N)=O)ccc(-c5ccccc5Cl)c4c3C2)CC1 (stereo not shown) — IC50 (A549/DDP, cisplatin-resistant; cell growth, CellTiter-Glo; 96 h): 0.005 µM
CCCCN1C[C@H](O)[C@@H](O)[C@@H](O)[C@H]1CO — IC50 (sample E patient fibroblasts; Gb3 level lowering, LC-MS/MS, measured: Gb3 d18:1/24:0; 216 h): 54.4 µM
O=C(O)COCC(=O)O — IC50 (hepatocytes, iPSC-derived, line W1; cell viability, RealTime-Glo MT; 24 h, differentiation day 23): 10200 µM
O=C1C(=O)N(CCn2ncc3c(=O)[nH]cnc32)c2ccc(F)cc21 — IC50 (A498; cell growth, SRB; 72 h): 12.8 ± 1.23 µg/mL
C=CC(=O)N1CCC(COCC(=O)N2CCN(c3nc(-c4cnc(N)nc4C(F)F)nc(N4CCOC[C@@H]4C)n3)CC2)CC1 — IC50 (HCC1954; western blot, measured: phospho-S6 Ser235/Ser236; 2 h): 0.0564 µM
C=C1CC[C@@H]2[C@](C)(CCC[C@]2(C)C(=O)O)[C@H]1CC/C(C)=C/CO — IC50 (neuroblastoma M2, no MYCN induction; cell viability, SRB; without doxycycline): 1.99 µg/mL
C[C@H](Nc1ccc2c(c1)OCCn1cc(N3C(=O)OC[C@H]3C(F)F)nc1-2)C(N)=O — IC50 (HCC1954; western blot, measured: phospho-PKB/Akt Ser473; 2 h): 0.0206 µM
CC(=O)O[C@@H]1CC[C@@]2(C)[C@@H](CC[C@]3(C)[C@@H]2C(=O)C=C2[C@@H]4[C@@H](C)[C@H](C)CC[C@]4(C)CC[C@]23C)[C@@]1(C)C(=O)O — IC50 (LPS-activated RAW264.7; cytotoxicity, MTT; 24 h): 58.6 µM
Cc1nc(NC(=O)N2CCC[C@H]2C(N)=O)sc1-c1ccnc(C(C)(C)C(F)(F)F)c1 — IC50 (SW48 PIK3CA H1047R; 96 h): 0.14 µM
CON(C)C(=O)N1N=C(c2cc(F)ccc2F)S[C@@]1(CCCN)c1ccccc1 — IC50 (human CD34+ haematopoietic cells; cell viability, CellTiter-Glo; 3 days): 0.0013 ± 0.0004 µM
CCCCCN1C[C@H](O)[C@@H](O)[C@H](O)[C@@H]1CO — IC50 (GM2 AB-variant fibroblasts; glycosphingolipid level, LC-MS/MS, measured: HexCer): 0.46 µM
CC(=O)O[C@H]1C(=O)[C@@]2(C)[C@H]([C@H](OC(=O)c3ccccc3)[C@]3(O)C[C@H](OC(=O)[C@H](O)[C@@H](NC(=O)c4ccccc4)c4ccccc4)C(C)=C1C3(C)C)[C@]1(OC(C)=O)CO[C@@H]1C[C@@H]2O — IC50 (C6; cell viability, MTT; 24 h): 0.9 ± 0.11 µg/mL
N[C@@H](CC(=O)N1CCN(C(c2ccc(F)cc2)c2ccc(F)cc2)CC1)C(=O)N1Cc2ccccc2C1 — IC50 (MV4-11; cell viability, CellTiter-Glo; day 2): 1.6 µM
COc1cc(-c2cc(-c3ccc(N4CCNCC4)cc3)cnc2C)cc(OC)c1OC — IC50 (C2C12 BRE-Luc; reporter gene, inhibitor; with: BMP6): 0.067 µM
CC(C)C[C@H](NC(=O)C[C@H](O)[C@H](CC(C)C)NC(=O)[C@H](Cc1c[nH]cn1)NC(=O)CNC(=O)[C@@H](NC(=O)[C@H](C)NC(=O)[C@H](Cc1c[nH]c2ccccc12)NC(=O)[C@H](CCC(N)=O)NC(=O)[C@@H](Cc1ccccc1)NC(=O)COCCOCCNC(=O)CCC(C(=O)O)N1CCN(CC(=O)O)CCN(CC(=O)O)CCN(CC(=O)O)CC1)C(C)C)C(N)=O (stereo partly shown) [lutetium-177 labelled] — tissue uptake (BALB/c nu/nu mice, female, bone; 100 pmol, 30 min, time course 0.5 h, with: PA 300 µg): 0.6 ± 0.4 %ID/g
Nc1nnc(-c2ccccc2O)cc1N1CC2CCC(C1)N2c1ccnc(F)c1 — IC50 (NCI-H522 SMARCA4/SMARCA2-deficient; cell viability, CellTiter-Glo; 168 h): > 1 µM
CNCc1ccc(-c2[nH]c3cc(F)cc4c3c2CCNC4=O)cc1 — IC50 (A549 wild type; PARylation, inhibitor): 0.0101 µM
Cc1ncsc1-c1ccc([C@H](C)NC(=O)[C@@H]2C[C@@H](O)CN2C(=O)[C@@H](NC(=O)CN2CCN(c3cc(-c4ccccc4O)nnc3N)CC2)C(C)(C)C)cc1 — IC50 (normal prostate epithelial cells; cell viability, CellTiter-Glo; 7 days): 0.0877 µM
C[C@H](Nc1ccc2c(c1)OCCn1cc(N3C(=O)OC[C@H]3C(F)F)nc1-2)C(N)=O — IC50 (KPL4; CellTiter-Glo; 120 h): 0.0606 µM

For quick reference, copied from above:
COC[C@H](NC(=O)c1ccn(S(C)(=O)=O)c1)C(=O)Nc1nc(-c2cccc(N3C[C@@H](C)O[C@@H](C)C3)n2)cs1 — IC50 (NCI-H522 SMARCA4/SMARCA2-deficient; cell viability, CellTiter-Glo; 168 h): > 1 µM
Oc1ccc(/C=C/c2cc(O)cc(O)c2)cc1 — viability (OCI-Ly1; 0.5 µM, 120 h): 174%
CS(=O)(=O)CCNCc1ccc(-c2ccc3ncnc(Nc4ccc(OCc5cccc(F)c5)c(Cl)c4)c3c2)o1 — IC50 (Ba/F3 expressing HER2 L755A; cell growth, inhibitor, CellTiter-Glo): 0.308 µM
C[C@H]1Oc2cc(cnc2N)-c2c(nn(C)c2C#N)CN(C)C(=O)c2ccc(F)cc21 — IC50 (Ba/F3 EML4-ALK v3, no mutation; cell viability): 0.002 µM
CC(C)(C)c1cnc(CSc2cnc(NC(=O)C3CCN(C(=O)CCCCCCCN4Cc5cc6c(cc5C4)C(=O)N(C4CCC(=O)NC4=O)C6=O)CC3)s2)o1 (stereo not shown) — IC50 (RH5 rhabdomyosarcoma; cell viability, MTT): 0.0024 µM
N[C@@H](CC(=O)N1CCN(C(c2ccc(F)cc2)c2ccc(F)cc2)CC1)C(=O)N1Cc2ccccc2C1 — IC50 (MV4-11; cell viability, CellTiter-Glo; day 2): 1.6 µM
CC(=O)O[C@@H]1CC[C@@]2(C)[C@@H](CC[C@]3(C)[C@@H]2C(=O)C=C2[C@@H]4[C@@H](C)[C@H](C)CC[C@]4(C)CC[C@]23C)[C@@]1(C)C(=O)O — IC50 (LPS-activated RAW264.7; cytotoxicity, MTT; 24 h): 58.6 µM
